Published values pooled from the literature.
A part holds a random share of what one study measured.

Block 1 — method: RNA Bind-n-Seq; form: RNA; sample: in vitro; concentration: 365 nM; relative to: no-protein control; reading: higher = stronger binding
Target: RNA binding protein fox-1 homolog 2, RRM domain, GST-SBP tag (RBFOX2, Homo sapiens, UniProt O43251-10, residues 100-194)
Notes: natural RNA segment, single round, ends assumed
Construct (chain): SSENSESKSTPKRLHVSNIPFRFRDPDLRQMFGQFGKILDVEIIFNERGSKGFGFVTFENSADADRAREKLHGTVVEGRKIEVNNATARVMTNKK
| Strand | RBNS enrichment (R) |
| --- | --- |
| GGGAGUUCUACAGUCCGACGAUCCAUCCCAACUCACACGGAAGCACGGGUCUUGUCUCAGUCUCUUCGCUGCAUUUGGAAAGCAGUCUCCUCUCGGGCCAGCGCCGGGCUGAGGUGUCCAGAGGCGGCGGCAGUGGAAUUCUCGGGUGCCAA | 0.569 |
| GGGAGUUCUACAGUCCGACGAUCGUGAGUUUGAGAAACAAGUUGAAACUAAAAUUAAAAUACCAGCCAUUUAGGUGCUUUCUCUGGCAUCUAUAAAAGUAAAUUCUAGUGCCUGCCAAGUGAUGGAUUAUAAUUGGAAUUCUCGGGUGCCAA | 1.18 |
| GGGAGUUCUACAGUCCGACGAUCGCCUUGUUUCCUGCCUUAUAUCUUGUAUUUCGACUUAUUACAGAGUUGAGGGUUCUUGCUUAAUUUAGAUCAAGUAUAAAAUUUGUAUGACUUCAAGUCUCAUUUUAUCUUGGAAUUCUCGGGUGCCAA | 0.892 |
| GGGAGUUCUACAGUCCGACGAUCUGGAAUGAUGUAAGCAAAUGCUUUUGGUUACUGGUACAUGUGUUUUUUCCUAGCUGACCUUUUAUAUUGCUAAAUCUGAAAUAAAAUAACUUUCCUUCCACAUUACAUGUUGGAAUUCUCGGGUGCCAA | 1.09 |
| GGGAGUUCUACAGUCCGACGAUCUGCUUGCACCUCAGGUAAAAAUCUGUAAAUAUCUAAGUUGUAAACCUGCUUGUUCAAAUACUGUGUGUAUUCCUUUUCUCUAAUGCAGCUCAUCACUUGGAGCAGUUUCUUGGAAUUCUCGGGUGCCAA | 0.489 |
| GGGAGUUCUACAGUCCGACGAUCUGUUAUUUUAUUUUCCAUACAGUAAAAAAUGUCCUCUCUUAACUCCUCUCACCCCCAACUCCCAAGGCAAAAGAGAAACCAAAAGUAGGACAAAAGAAAGAGACAGACAGUGGAAUUCUCGGGUGCCAA | 0.612 |
| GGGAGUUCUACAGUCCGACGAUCAGCCAUCACCUUGGACCACCAAGCCUUGAAUGGUGUUGCCAGUUGGCUCCUCCUGGGGAGGACUUUUGUCACUCUUCAGCCAAGAAGCAGCUCUGUGCACCUGUGUGUGAUGGAAUUCUCGGGUGCCAA | 0.401 |
| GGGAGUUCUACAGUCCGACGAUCAGAAACCGUUACAAUUUCCUGUUGCUGUACAGCCUCUUCUGAACUCUCUUCUCUCUUUGGUGUUCAUAGAGACAUUUCCAAUGGCAUUGCUUGAUUCAAAACCAAGGAAAUGGAAUUCUCGGGUGCCAA | 0.336 |

Block 2 — method: protein-binding microarray; form: double-stranded DNA, one strand shown; sample: in vitro; concentration: 2540 nM top; notes: 60-bp whole probe; together with: salmon DNA 0.4 mg/ml; relative to: random background probes; reading: higher = stronger binding; constant ends, left off below: GCCTAGCAC … GTCTTGATTCGCTTGACGCTGCTG
Target: Interferon regulatory factor 3, full length, phosphomimetic (IRF3, Homo sapiens, UniProt Q14653, residues 1-427, S386D/S396D/S398D/S402D/T404D/S405D)
Target sequence (chain): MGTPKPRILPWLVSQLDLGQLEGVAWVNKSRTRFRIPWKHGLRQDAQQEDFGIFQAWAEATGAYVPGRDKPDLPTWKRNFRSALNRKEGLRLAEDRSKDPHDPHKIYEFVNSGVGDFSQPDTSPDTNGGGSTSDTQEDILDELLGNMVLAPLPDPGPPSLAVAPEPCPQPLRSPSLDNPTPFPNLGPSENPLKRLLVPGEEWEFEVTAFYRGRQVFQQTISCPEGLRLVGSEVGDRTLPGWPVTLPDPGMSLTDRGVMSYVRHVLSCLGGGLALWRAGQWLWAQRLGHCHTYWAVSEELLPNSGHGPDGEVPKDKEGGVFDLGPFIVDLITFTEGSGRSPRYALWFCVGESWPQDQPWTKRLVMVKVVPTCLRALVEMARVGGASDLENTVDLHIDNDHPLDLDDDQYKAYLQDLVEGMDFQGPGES
| Strand | fitted relative affinity [z-score] |
| --- | --- |
| TTAGAACTGAGTATTGATTAGTGCTAG | -0.315 |
| AGATTTTTATCAAATGTGGGAGTGCTA | -0.012 |
| CCAAGTCTTGTTTTACAATTGTGCTAG | 0.91 |
| TCATTTTTCTTTAAAAGACTGTGCTAG | 2.06 |
| GGTCTTTCTGTTTTCTCCATGTGCTAG | 3.09 |
| TTAGACCTGGGGACTGGATTAGTGCTA | -0.799 |
| GACGATCTCAGTATCGAGCCGTGCTAG | 0.7 |
| GACGGTTCGGGTTTCGGGACGTGCTAG | 2.2 |
| GACGAACTTGGGACTGGAGACGTGCTA | -0.427 |
| TTAGGTTTCGGGTTTCGGTTTGTGCTA | 6.76 |
| ATGCTACTGCATTTTTTTTTGTGCTAG | -0.327 |

Block 3 — method: universal PBM; form: double-stranded DNA, one strand shown; sample: in vitro; concentration: 600 nM; reading: higher = stronger binding
Target: Sal-like protein 4, full length isoform A (SALL4, Homo sapiens, UniProt Q9UJQ4, residues 1-1053)
Chain of UniProt Q9UJQ4 (whole entry, looked up): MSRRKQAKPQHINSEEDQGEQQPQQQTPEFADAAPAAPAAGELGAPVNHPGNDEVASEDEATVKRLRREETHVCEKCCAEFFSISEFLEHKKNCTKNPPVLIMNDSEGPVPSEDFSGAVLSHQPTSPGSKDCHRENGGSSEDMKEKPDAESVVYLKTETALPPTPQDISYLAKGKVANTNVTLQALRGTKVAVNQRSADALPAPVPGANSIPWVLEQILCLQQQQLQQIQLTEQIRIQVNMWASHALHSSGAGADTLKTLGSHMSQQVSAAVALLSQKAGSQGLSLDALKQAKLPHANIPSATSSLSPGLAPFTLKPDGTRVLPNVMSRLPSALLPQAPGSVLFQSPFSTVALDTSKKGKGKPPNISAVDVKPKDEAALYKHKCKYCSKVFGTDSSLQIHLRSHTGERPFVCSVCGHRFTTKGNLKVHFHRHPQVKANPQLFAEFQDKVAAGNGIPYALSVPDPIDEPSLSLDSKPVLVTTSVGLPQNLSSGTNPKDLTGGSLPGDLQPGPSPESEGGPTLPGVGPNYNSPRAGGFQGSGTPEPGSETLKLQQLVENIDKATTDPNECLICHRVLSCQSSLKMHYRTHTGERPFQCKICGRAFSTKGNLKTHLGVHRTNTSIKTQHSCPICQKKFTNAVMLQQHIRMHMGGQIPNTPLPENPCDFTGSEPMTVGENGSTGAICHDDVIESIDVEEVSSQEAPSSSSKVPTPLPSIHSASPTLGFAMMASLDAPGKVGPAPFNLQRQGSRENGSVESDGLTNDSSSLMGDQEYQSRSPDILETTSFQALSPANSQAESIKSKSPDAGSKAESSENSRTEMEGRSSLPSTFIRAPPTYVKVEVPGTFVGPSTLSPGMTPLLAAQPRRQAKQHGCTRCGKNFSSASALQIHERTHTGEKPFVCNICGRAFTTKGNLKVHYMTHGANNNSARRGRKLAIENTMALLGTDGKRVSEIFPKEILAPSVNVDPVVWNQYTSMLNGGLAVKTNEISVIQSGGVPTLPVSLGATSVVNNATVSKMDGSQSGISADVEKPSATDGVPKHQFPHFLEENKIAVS
Notes: 8-mer, flanks averaged, mean of replicates
| Strand | E-score |
| --- | --- |
| AGGGGGGA | -0.22 |
| CGATGTCA | 0.00156 |
| AAACAAAC | 0.185 |
| CACTCTCC | 0.0619 |
| CTTGCGCA | 0.0453 |
| CGACACTA | -0.18 |
| GCATTCGA | -0.0128 |
| TCGGTACA | 0.0585 |
| CACGCGAG | -0.236 |
| GGTCTAAC | -0.166 |
| AAAAGGTA | 0.132 |

Other studies, line by line
| Molecule | target | test | test system | setting | scale | quantity | value |
| --- | --- | --- | --- | --- | --- | --- | --- |
| PhoQ, residues 284 288 289 292 302 303 STVVAA | PhoP, residues 12 14 15 18 19 AQALL (Escherichia coli, UniProt P23836) | Sort-seq, refers to: YFP reporter | E. coli | PhoQ-PhoP variant library, together with: 10 µM Mg2+ | relative to: high Mg2+ state, higher = stronger signaling | fold induction | 15 |

Some of these lines once more (block 1):
| Strand | RBNS enrichment (R) |
| --- | --- |
| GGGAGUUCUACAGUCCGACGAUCCAUCCCAACUCACACGGAAGCACGGGUCUUGUCUCAGUCUCUUCGCUGCAUUUGGAAAGCAGUCUCCUCUCGGGCCAGCGCCGGGCUGAGGUGUCCAGAGGCGGCGGCAGUGGAAUUCUCGGGUGCCAA | 0.569 |
| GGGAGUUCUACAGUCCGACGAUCGUGAGUUUGAGAAACAAGUUGAAACUAAAAUUAAAAUACCAGCCAUUUAGGUGCUUUCUCUGGCAUCUAUAAAAGUAAAUUCUAGUGCCUGCCAAGUGAUGGAUUAUAAUUGGAAUUCUCGGGUGCCAA | 1.18 |
